Experimental data collected from several papers.
Compare with care: the assays were run in different laboratories. Several values in a cell are separate wells, animals, samples, runs or records. ± marks the error that the study gave.
Sigma-2 receptor/TMEM97: Sigma-2 receptor/TMEM97 (Cavia porcellus, UniProt H0V073)
OPRM1: Mu-type opioid receptor (OPRM1, Homo sapiens, UniProt P35372)

SMILES	target	assay	system	conditions	Ki
N[C@@H](CO)C(=O)O	cysE (Escherichia coli, UniProt P0A9D4)				4000 µM and 3700 µM
CC[C@H]1O[C@]2(C)[C@H](OC(C)=O)[C@@]1(C)O[C@@H](/C=C/C=C/C=C/c1oc(=O)cc(OC)c1C)[C@@H]2O	atpD, in F1Fo complex (Escherichia coli, UniProt P0ABB4)	ATP hydrolysis	Escherichia coli everted membranes	free enzyme	1.1 ± 0.4 µM
O=C(O)CP(=O)(O)O	pyruvate carboxylase Rhizobium etli	noncompetitive inhibitor		together with: MgATP	2600 ± 300 µM
COP(=O)(O)C(C)=O	dxs (Escherichia coli, UniProt P77488, H49A)	enzyme activity, inhibitor		together with: D-GAP 500 µM, pyruvate 2 mM	125 µM
COc1cc2c(cc1OCCCF)CCN1CC(CC(C)C)C(C3CO3)CC21 (racemic)	Slc18a2 (Rattus norvegicus, UniProt Q01827)	binding	rat striatal homogenate	together with: [3H](±)-tetrabenazine	0.00015 ± 1e-05 µM
CCCN(CCC1(O)CC(NS(=O)(=O)c2ccc(F)c(Cl)c2)C1)[C@H]1CCc2nc(N)sc2C1 (stereo in doubt)	dopamine D1-like receptor, rat	radioligand binding	rat striatal membranes	together with: [3H]SCH23390	41.9 ± 2.76 µM
O=C(OCCN1CCOCC1)C1(c2ccccc2)CCCCC1	Sigma-2 receptor/TMEM97	binding	guinea pig brain	sigma-2 site, high-affinity site, together with: 3 nM [3H]DTG, (+)-pentazocine	32.1 µM
Nc1nc2c(c(=O)[nH]1)N1CN(c3ccc(C(=O)N[C@@H](CCC(=O)O)C(=O)O)cc3)CC1CN2 (stereo partly shown)	Thymidylate synthase (Escherichia coli K-12, UniProt P0A884)	substrate inhibition, noncompetitive kinetic isotope effect		pH 7.5, 25 °C, MgCl2 50 mM, together with: dUMP 100 µM	760 ± 70 µM
O=C(/C=C/c1ccoc1)N[C@H]1CC[C@@]2(O)[C@H]3Cc4cccc5c4[C@@]2(CCN3CC2CC2)[C@H]1O5	Oprd1 (Mus musculus, UniProt P32300)	binding, radioligand displacement		together with: [3H]diprenorphine	0.0776 ± 0.0059 µM
N=C(N)NCCC[C@H](NC(=O)[C@H](Cc1c[nH]c2ccccc12)NC(=O)[C@H](CCCCN)NC(=O)CNC(=O)CCC(=O)N/N=C/c1ccc(/C=N/NC(=O)CCC(=O)NCC(=O)N[C@@H](CCCCN)C(=O)N[C@@H](Cc2c[nH]c3ccccc23)C(=O)N[C@@H](CCCNC(=N)N)C(N)=O)cc1)C(N)=O	Tryptase beta-2 (TPSB2, Homo sapiens, UniProt P20231)	non-competitive inhibitor			0.0656 ± 0.0023 µM
CC(C)[C@@H](CN1CCC(c2cccc(O)c2)CC1)NC(=O)[C@H]1Cc2ccccc2CN1	OPRM1	ligand displacement, radioligand			0.164 µM
CN(CCOCCCc1ccccc1)Cc1ccccc1	OPRM1				2.76 to 3.04 µM
CCCCCCCCCCCCCCC[C@@H](O)[C@@H](N)CO	SIGMAR1 (Cavia porcellus, UniProt Q60492)	ligand displacement, radioligand			0.07 µM
CC(C)C[C@H](NC(=O)[C@H](CC(C)C)NC(=O)[C@H](CC(=O)O)NC(=O)[C@H](CC(C)C)NC(=O)[C@@H](NC(=O)[C@H](CCC(=O)O)NC(=O)[C@H](CO)NC(=O)[C@H](Cc1c[nH]c2ccccc12)NC(=O)[C@H](C)NC(=O)[C@@H](N)[C@@H](C)O)C(C)C)C(=O)N[C@@H](CCCNC(=N)N)C(=O)N[C@@H](CCCNC(=N)N)C(=O)NCC(=O)NCC(=O)NCC(=O)N[C@@H](Cc1ccc(C(=O)c2ccccc2)cc1)C(=O)N[C@@H](CCCCNC(=O)CCCC[C@@H]1SC[C@@H]2NC(=O)N[C@@H]21)C(N)=O	ATP2B4 (Homo sapiens, UniProt P23634)	Ca2+-Mg2+-ATPase activity, inhibitor	erythrocyte ghosts	human erythrocyte, together with: Ca2+	5.1 ± 0.8 µM
O=C(O)c1cc(NS(=O)(=O)c2ccccn2)cc([C@H]2CCN[C@@H]2C(=O)O)c1 (racemic)	Glutamate receptor ionotropic, kainate 1 (Rattus norvegicus, UniProt P22756)	ligand displacement, radioligand		cell membranes	27.6 µM
C[C@@H]1O[C@@H](O[C@H]2C[C@@H](O)[C@]3(CO)[C@H]4[C@H](O)C[C@]5(C)[C@@H](C6=CC(=O)OC6)CC[C@]5(O)[C@@H]4CC[C@]3(O)C2)[C@H](O)[C@H](O)[C@H]1O	ATP1A1 (Sus scrofa, UniProt P05024)	enzyme activity	purified pig kidney enzyme	1% DMSO	0.9 ± 0.06 µM
NC(=O)CCC(N)C(=O)O (stereo in doubt)	anandamide membrane transporter rat	[3H]anandamide uptake, non-competitive inhibitor	brain synaptosomes		0.43 ± 0.045 µM

SMILES	target	assay	system	conditions	Ki
O=C(O)C1CCC1	putA, PRODH domain (Escherichia coli, UniProt P09546)	competitive inhibitor		pH 7.5, room temperature, together with: L-proline	1900 ± 200 µM
C[C@H]1CN(C[C@H]2Cc3ccc(O)cc3CN2)CC[C@@]1(C)c1cccc(O)c1	Nociceptin receptor (OPRL1, Homo sapiens, UniProt P41146)	ligand displacement, radioligand			> 10 µM
O[C@@H]1CNC=Nc2c1ncn2[C@H]1C[C@H](O)[C@@H](CSc2ccccc2)O1	MTA/SAH deaminase (Pseudomonas aeruginosa, UniProt Q9HZ64)	inhibitor		pH 7.4, 25 °C, together with: MTA 100 µM	0.00013 ± 9e-06 µM
CC1(C)Oc2cc(C(=O)N3C4CC5CC3CC(C4)O5)cc(O)c2[C@@H]2C[C@@H](O)CC[C@H]21	Cnr1 (Rattus norvegicus, UniProt P20272)	[3H]CP-55,940 displacement	rat brain membranes	together with: [3H]CP-55,940	no binding
CC(=O)P(=O)(O)OCc1ccccc1	dxs (Escherichia coli, UniProt P77488)	enzyme activity, inhibitor, absorbance			10.4 µM
c1ccc(CCN2CCCCC2)cc1	Drd2 (Rattus norvegicus, UniProt P61169)	ligand displacement, radioligand			> 10 µM
CCCCN1C(=O)C(C=CC=CC=C2C(=O)N(c3ccc(S(=O)(=O)O)cc3)N=C2C)C(=O)N(CCCC)C1=O	SLC4A1 (Homo sapiens, UniProt P02730)	36Cl exchange flux, inhibitor	human erythrocytes	0 °C, chloride-loaded form at equilibrium	0.17 to 0.19 µM and 0.166 to 0.185 µM
CC[C@H](C)CCCCC(=O)N[C@@H](CCN)C(=O)N[C@H](C(=O)N[C@@H](CCN)C(=O)N[C@H]1CCNC(=O)[C@H]([C@@H](C)O)NC(=O)[C@H](CCN)NC(=O)[C@H](CCN)NC(=O)[C@H](CC(C)C)NC(=O)[C@@H](CC(C)C)NC(=O)[C@H](CCN)NC1=O)[C@@H](C)O	lipopolysaccharide	binding, displacement	Salmonella enterica		0.6 ± 0.1 µM
Nc1nc(F)nc2c1ncn2[C@@H]1O[C@H](CO)[C@@H](O)[C@@H]1O	ADORA2A (Homo sapiens, UniProt P29274)	ligand displacement, radioligand		cell membranes	> 100 µM
N[C@@H](CCC(=O)O)C(=O)O	anandamide membrane transporter, mouse	[3H]anandamide uptake, non-competitive inhibitor	mouse brain synaptosomes		3.58 ± 0.3 µM
N=C(O)c1ccc[n+]([C@@H]2O[C@H](COP(=O)(O)OP(=O)([O-])OC[C@H]3O[C@@H](n4cnc5c(N)ncnc54)[C@H](O)[C@@H]3O)[C@@H](O)[C@H]2O)c1	ADH1 (Saccharomyces cerevisiae, UniProt P00330, H45R/H49Q)	inhibitor		pH 7.3, 30 °C	230 µM
CCOP(=O)(COc1ccc(C[C@H](NC(=O)O[C@H]2CO[C@H]3OCC[C@H]32)[C@H](O)CN(CC(CC)CC)S(=O)(=O)c2ccc(N)cc2)cc1)OCC	Protease (Human T-cell leukemia virus type I, UniProt Q82134, L40I)				0.03 ± 0.01 µM
CN1CCN(CCc2ccc(Cl)c(Cl)c2)CC1	Sigma-2 receptor/TMEM97	binding	guinea pig brain	sigma-2 site, high-affinity site, together with: 3 nM [3H]DTG, (+)-pentazocine	0.625 µM
CN(C(=N)Nc1cccc2ccccc12)c1cc(C(F)(F)F)ccc1F	NMDA receptor PCP site, rat	radioligand binding	rat brain homogenate	2 h, 23 °C, together with: [3H](+)-MK-801 0.50 nM, L-glutamate 100 µM, glycine 30 µM	0.00129 ± 3e-05 µM
O=C(/C=C/c1ccoc1)N[C@H]1CC[C@@]2(O)[C@H]3Cc4ccc(O)c5c4[C@@]2(CCN3CC2CC2)[C@H]1O5	Oprm1 (Mus musculus, UniProt P42866)	ligand displacement, radioligand			0.00123 µM
CCNC(=O)[C@H]1O[C@@H](n2cnc3c(N)nc(NCCc4ccc(CCC(=O)NCCN)cc4)nc32)[C@H](O)[C@@H]1O	ADORA1 (Homo sapiens, UniProt P30542)	ligand displacement, radioligand		cell membranes	0.168 µM
Nc1ccccc1C(=O)O	mushroom tyrosinase	monophenolase activity, inhibitor		pH 6.8, 20 °C, together with: p-coumaric acid substrate	5.15 µM

Repeated from above:
SMILES	target	assay	system	conditions	Ki
N[C@@H](CCC(=O)O)C(=O)O	anandamide membrane transporter, mouse	[3H]anandamide uptake, non-competitive inhibitor	mouse brain synaptosomes		3.58 ± 0.3 µM
N=C(O)c1ccc[n+]([C@@H]2O[C@H](COP(=O)(O)OP(=O)([O-])OC[C@H]3O[C@@H](n4cnc5c(N)ncnc54)[C@H](O)[C@@H]3O)[C@@H](O)[C@H]2O)c1	ADH1 (Saccharomyces cerevisiae, UniProt P00330, H45R/H49Q)	inhibitor		pH 7.3, 30 °C	230 µM
CCOP(=O)(COc1ccc(C[C@H](NC(=O)O[C@H]2CO[C@H]3OCC[C@H]32)[C@H](O)CN(CC(CC)CC)S(=O)(=O)c2ccc(N)cc2)cc1)OCC	Protease (Human T-cell leukemia virus type I, UniProt Q82134, L40I)				0.03 ± 0.01 µM
CN1CCN(CCc2ccc(Cl)c(Cl)c2)CC1	Sigma-2 receptor/TMEM97	binding	guinea pig brain	sigma-2 site, high-affinity site, together with: 3 nM [3H]DTG, (+)-pentazocine	0.625 µM
